Measurements gathered from unrelated publications.
Each line is one published result; not all experiments were run side by side. Values joined by “and” are separate records of one study, mostly repeats; a detail may differ. ± marks the error that the study gave.
PTGS2: Prostaglandin G/H synthase 2 (PTGS2, Homo sapiens, UniProt P35354)
Sequence of UniProt P35354 (whole entry, looked up): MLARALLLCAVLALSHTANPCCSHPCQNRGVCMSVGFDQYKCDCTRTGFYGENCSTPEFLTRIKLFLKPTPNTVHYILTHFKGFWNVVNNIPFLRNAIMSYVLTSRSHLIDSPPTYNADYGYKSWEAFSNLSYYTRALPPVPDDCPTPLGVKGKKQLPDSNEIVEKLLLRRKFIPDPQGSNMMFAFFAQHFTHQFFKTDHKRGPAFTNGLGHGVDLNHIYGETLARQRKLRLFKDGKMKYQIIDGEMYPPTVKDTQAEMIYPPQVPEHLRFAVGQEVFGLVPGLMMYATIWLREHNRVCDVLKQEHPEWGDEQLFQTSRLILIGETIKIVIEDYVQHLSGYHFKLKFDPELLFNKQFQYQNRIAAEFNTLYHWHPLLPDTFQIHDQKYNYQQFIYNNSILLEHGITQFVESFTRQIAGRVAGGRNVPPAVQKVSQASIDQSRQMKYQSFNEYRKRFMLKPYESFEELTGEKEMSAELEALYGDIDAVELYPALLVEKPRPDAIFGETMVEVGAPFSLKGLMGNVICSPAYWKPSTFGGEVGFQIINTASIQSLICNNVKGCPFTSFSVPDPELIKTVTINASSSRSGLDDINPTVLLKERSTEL
Protein-S-isoprenylcysteine O-methyltransferase: Protein-S-isoprenylcysteine O-methyltransferase (Homo sapiens, UniProt O60725)
Sequence of UniProt O60725 (whole entry, looked up): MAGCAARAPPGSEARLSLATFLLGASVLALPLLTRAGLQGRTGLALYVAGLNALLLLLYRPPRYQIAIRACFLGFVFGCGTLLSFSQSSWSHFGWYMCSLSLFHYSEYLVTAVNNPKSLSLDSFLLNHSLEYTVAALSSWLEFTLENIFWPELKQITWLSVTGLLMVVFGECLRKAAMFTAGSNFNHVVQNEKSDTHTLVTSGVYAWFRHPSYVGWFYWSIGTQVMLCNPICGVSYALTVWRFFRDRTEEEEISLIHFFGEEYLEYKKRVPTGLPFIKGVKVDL
Coelenterazine h 2-monooxygenase: Coelenterazine h 2-monooxygenase (Renilla reniformis, UniProt P27652)
Sequence of UniProt P27652 (whole entry, looked up): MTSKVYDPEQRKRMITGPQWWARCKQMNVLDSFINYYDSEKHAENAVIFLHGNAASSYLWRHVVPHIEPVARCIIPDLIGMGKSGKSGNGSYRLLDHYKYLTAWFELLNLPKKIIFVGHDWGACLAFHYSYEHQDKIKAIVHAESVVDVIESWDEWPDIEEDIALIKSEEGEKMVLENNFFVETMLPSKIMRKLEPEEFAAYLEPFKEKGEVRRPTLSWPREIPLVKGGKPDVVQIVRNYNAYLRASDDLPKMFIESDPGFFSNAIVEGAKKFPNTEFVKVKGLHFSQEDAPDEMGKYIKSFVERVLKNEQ
USP5: Ubiquitin carboxyl-terminal hydrolase 5 (USP5, Homo sapiens, UniProt P45974)
Sequence of UniProt P45974 (whole entry, looked up): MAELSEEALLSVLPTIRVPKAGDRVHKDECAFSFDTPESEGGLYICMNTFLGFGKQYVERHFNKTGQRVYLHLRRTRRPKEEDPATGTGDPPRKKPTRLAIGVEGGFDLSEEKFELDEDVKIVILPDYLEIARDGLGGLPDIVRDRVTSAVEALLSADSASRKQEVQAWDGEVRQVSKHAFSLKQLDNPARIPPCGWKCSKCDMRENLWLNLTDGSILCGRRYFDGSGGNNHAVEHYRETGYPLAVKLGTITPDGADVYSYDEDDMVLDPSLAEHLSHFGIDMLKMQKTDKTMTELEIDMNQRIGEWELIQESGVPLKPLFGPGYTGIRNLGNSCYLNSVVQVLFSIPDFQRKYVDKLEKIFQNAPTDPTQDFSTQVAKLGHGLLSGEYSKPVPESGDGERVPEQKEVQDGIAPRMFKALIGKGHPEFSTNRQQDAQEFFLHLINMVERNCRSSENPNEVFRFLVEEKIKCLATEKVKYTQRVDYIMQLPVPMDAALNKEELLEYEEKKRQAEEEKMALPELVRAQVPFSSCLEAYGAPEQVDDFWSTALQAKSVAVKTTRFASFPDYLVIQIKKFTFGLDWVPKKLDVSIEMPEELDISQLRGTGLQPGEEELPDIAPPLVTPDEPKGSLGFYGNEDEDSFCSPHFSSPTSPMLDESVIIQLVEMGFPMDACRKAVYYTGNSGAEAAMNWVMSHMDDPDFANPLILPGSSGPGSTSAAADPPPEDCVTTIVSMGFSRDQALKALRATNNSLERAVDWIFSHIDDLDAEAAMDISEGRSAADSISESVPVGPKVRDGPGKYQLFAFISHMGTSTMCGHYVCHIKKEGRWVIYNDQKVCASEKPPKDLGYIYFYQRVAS
Sequence of UniProt Q02127 (whole entry, looked up): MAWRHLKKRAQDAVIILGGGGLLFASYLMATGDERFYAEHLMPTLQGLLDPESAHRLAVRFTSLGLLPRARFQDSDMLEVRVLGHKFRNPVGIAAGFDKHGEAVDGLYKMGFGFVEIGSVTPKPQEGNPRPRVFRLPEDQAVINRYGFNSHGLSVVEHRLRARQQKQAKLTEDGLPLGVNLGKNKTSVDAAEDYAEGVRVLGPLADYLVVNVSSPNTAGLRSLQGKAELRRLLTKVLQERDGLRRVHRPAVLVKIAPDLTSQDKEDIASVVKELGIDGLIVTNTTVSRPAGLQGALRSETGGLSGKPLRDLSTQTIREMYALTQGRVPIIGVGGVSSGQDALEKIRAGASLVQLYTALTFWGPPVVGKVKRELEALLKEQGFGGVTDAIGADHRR
Sequence of UniProt P35414 (whole entry, looked up): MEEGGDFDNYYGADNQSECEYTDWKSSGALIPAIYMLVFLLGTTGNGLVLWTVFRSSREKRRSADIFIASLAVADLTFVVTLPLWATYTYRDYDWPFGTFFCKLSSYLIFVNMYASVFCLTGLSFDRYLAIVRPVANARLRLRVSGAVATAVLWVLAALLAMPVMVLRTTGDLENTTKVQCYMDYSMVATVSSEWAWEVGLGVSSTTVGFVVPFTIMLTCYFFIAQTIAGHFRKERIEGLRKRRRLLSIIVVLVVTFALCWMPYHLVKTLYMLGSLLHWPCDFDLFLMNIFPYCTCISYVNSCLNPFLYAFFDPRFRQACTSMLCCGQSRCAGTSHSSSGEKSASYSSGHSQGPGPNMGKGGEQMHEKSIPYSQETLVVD
Sequence of UniProt Q9Y271 (whole entry, looked up): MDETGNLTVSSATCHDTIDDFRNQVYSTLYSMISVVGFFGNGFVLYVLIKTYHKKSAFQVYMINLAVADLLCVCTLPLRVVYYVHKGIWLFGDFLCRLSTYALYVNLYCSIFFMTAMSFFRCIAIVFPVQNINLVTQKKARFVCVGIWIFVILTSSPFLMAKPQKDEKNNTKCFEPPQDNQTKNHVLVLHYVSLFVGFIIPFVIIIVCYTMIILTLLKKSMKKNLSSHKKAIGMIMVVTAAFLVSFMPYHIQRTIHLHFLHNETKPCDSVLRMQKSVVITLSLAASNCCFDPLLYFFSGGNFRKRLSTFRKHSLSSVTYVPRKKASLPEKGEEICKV
Sequence of UniProt P35462 (whole entry, looked up): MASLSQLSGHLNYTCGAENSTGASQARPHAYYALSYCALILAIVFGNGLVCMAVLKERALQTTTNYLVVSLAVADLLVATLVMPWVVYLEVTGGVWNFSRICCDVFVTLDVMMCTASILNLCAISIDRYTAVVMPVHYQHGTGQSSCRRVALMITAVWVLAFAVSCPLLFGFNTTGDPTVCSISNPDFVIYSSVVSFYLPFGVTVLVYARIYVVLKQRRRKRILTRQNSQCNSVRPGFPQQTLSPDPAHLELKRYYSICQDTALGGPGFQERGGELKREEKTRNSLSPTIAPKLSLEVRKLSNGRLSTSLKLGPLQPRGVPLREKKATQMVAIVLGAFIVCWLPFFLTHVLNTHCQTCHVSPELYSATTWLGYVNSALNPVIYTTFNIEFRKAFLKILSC
Sequence of UniProt Q8NET8 (whole entry, looked up): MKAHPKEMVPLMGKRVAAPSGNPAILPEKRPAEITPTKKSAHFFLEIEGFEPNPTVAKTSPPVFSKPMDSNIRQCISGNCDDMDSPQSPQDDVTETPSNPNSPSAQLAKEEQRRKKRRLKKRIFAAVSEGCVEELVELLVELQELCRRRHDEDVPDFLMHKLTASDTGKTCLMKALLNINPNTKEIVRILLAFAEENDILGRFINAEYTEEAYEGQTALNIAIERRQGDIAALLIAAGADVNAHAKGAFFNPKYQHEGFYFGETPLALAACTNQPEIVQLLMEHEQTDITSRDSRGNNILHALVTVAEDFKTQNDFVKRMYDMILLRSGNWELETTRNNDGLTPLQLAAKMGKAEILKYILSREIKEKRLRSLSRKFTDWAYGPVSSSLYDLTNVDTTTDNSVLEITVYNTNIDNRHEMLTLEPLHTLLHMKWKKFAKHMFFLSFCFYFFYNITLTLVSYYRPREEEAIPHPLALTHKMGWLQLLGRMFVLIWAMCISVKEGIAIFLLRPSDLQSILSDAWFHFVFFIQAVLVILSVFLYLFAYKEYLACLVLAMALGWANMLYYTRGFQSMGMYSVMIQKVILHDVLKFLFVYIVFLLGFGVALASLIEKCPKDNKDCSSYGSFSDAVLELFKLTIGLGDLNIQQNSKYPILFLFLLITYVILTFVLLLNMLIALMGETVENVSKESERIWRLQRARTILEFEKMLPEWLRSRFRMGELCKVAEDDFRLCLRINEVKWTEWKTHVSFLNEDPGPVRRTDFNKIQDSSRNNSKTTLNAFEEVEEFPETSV
Sequence of UniProt P51684 (whole entry, looked up): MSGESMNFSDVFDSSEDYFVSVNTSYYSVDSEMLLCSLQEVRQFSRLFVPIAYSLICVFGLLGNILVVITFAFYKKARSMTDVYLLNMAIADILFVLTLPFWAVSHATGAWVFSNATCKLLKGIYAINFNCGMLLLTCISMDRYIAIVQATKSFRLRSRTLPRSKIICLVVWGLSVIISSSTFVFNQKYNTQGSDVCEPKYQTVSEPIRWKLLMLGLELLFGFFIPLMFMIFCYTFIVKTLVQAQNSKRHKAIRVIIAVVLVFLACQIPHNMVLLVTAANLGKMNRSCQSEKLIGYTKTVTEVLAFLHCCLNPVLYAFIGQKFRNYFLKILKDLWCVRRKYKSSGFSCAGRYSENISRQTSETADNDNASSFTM

C/C=C(/C)C(=O)O[C@@H]1C=C(C)CC[C@]2(O)[C@@H](C(C)C)CC(=O)[C@]12C  inhibition (PTGS2; enzyme activity, inhibitor; 0.49 µg/mL): 0%
O=C1CO[C@H](CNC(=O)C2(c3ccc(Cl)cc3)CC2)CN1C1Cc2ccccc2C1  inhibition (C-C chemokine receptor type 6 (CCR6, Homo sapiens, UniProt P51684); β-arrestin recruitment, antagonist; 1 µM): 51%
CCCCCCCCN(CCC(=O)Nc1ccccc1)C(=O)c1ccc(OC)cc1  inhibition (Protein-S-isoprenylcysteine O-methyltransferase; enzyme activity; Sf9 membranes; 50 µM, added: [3H]S-adenosylmethionine, biotin-farnesyl-L-cysteine): 52%
COC1CN([C@H]2CC[C@H]([C@@]3(C)Oc4c(Cl)cc(C(=O)NCc5c(SC)cc(C)[nH]c5=O)c(C)c4O3)CC2)C1  log2 fold change (RNA-seq, refers to: TSKU mouse homolog; mouse, HT-1376 xenograft, whole blood; dose not given; reference: vehicle): 0.44
COc1ccc(CSc2ncccn2)cc1OS(=O)(=O)c1ccc([N+](=O)[O-])cc1  inhibition (Apelin receptor (APLNR, Homo sapiens, UniProt P35414); β-arrestin recruitment, antagonist, PRESTO-Tango; concentration not given): 90.1 ± 1.2%
CCCCCCCCN(CCC(=O)Nc1ccccc1)C(=O)c1cccnc1  inhibition (Protein-S-isoprenylcysteine O-methyltransferase; enzyme activity; Sf9 membranes; 50 µM, added: [3H]S-adenosylmethionine, biotin-farnesyl-L-cysteine): 38%
CN1C=C/C(=C\c2cc[n+](C)c3ccccc23)c2ccccc21  inhibition (Coelenterazine h 2-monooxygenase; luciferase activity, inhibitor, luminescence counter-screen; concentration not given, test 2): 120% and 133%
CCSc1nnc2c(n1)OC(C(=O)c1ccccc1)Nc1ccccc1-2 (centres unmarked)  inhibition (USP5; enzyme activity, inhibitor; 17 µM): 11%
CC=C(C)C(=O)OC1CC2C(C=C(C)C3C(OC(C)=O)CC(=O)C13C)OC(=O)C2C (centres unmarked)  inhibition (PTGS2; enzyme activity, inhibitor; 7.81 µg/mL): 0%
Cc1ccc2c(c1)sc(-c1ccc(N(C)C)cc1)[n+]2C.[I-]  inhibition (Coelenterazine h 2-monooxygenase; luciferase activity, inhibitor, luminescence counter-screen; concentration not given, test 1): 74.5% and 67.2%
O=C1c2ccccc2C(=O)c2c1oc1c3c(ccc21)OCN(CCCn1ccnc1)C3  inhibition (USP5; enzyme activity, inhibitor; 17 µM): 50%
CO[C@@H]1OC[C@@H](O)[C@H](O)[C@H]1O  inhibition (PTGS2; enzyme activity, inhibitor; 7.81 µg/mL): 56.9%
CC(=O)C12NC(C)(C)CC1(C)C(=O)C1=C2c2c(c3c4n2C(C)(C)CC2=C4C4(CC(C)(C)NC(C)(C4)C2=O)CC3(C)C)C(=O)C(C)(C)N1 (single isomer, unassigned; (+))  inhibition (Transient receptor potential cation channel subfamily V member 3 (TRPV3, Homo sapiens, UniProt Q8NET8); ion current, inhibitor, patch clamp; HEK-293T; 50 µM): 11.4%
COc1ccc(C2NC([O-])=C(C#N)C(=O)C2[n+]2ccccc2)cc1 (centres unmarked)  inhibition (USP5; enzyme activity, inhibitor; 17 µM): 76%
COc1ccc(S(=O)(=O)N2CCc3ccccc3C2)cc1N1CCN(C(=O)c2ccc(F)cc2C(F)(F)F)CC1  inhibition (Gastrin/cholecystokinin type B receptor (CCKBR, Homo sapiens, UniProt P32239); ligand displacement, radioligand; 1 µM): 9.7%
Cc1ccc(-c2nn(-c3ccc(S(C)(=O)=O)cc3)cc2C=NN=c2[nH]c(-c3ccc(Br)cc3)cs2)cc1 (mixture of isomers)  inhibition (PTGS2; enzyme activity; 10 µM): 71.8%
O=C(COCC(F)F)Nc1ccc([C@H]2[C@@H](F)[C@@H](F)C[C@@H](F)[C@H]2F)cc1  hepatic clearance (hepatocyte stability; cryopreserved mouse hepatocytes; 1 µM): 84 mL/min/kg
CC(C)C[C@H](NC(=O)[C@H](Cc1ccc(O)cc1)NC(=O)[C@@H](CCCNC(=N)N)NC(=O)[C@@H](CO)NC(=O)[C@H](Cc1ccccc1)NC(=O)[C@H](CC1CCCCC1)NC(=O)[C@H](CC(=O)O)NC(=O)CN1CCN(CC(=O)O)CCN(CC(=O)O)CCN(CC(=O)O)CC1)C(=O)N[C@@H](Cc1c[nH]c2ccccc12)C(=O)N[C@@H](CO)C(=O)O [copper-64 labelled]  activity concentration (human, lung; concentration not given, 1 h): 980 Bq/mL and 588 Bq/mL and 706 Bq/mL and 1370 Bq/mL and 1480 Bq/mL and 1450 Bq/mL
COc1ccc(C#CC2=C[C@H]3C[C@@]4(OC(=O)C=C24)[C@H]2CC[C@H](C(OC)OC)N32)cc1  inhibition (Androgen receptor (AR, Homo sapiens, UniProt P10275); radioligand binding, radioligand displacement; 10 µM): 53%
O=C1c2sc(-c3ccc(N4CCC(F)C4)nc3F)nc2CCN1c1cccnc1 (centres unmarked)  inhibition (Cysteinyl leukotriene receptor 1 (CYSLTR1, Homo sapiens, UniProt Q9Y271); ligand displacement, radioligand; 1 µM): 2%
CCOC(=O)C(C#N)C1(O)C(=O)c2ccccc2C1=O (centres unmarked)  inhibition (USP5; enzyme activity, inhibitor; 17 µM): 57%
CC(=O)c1ccc(NC(=O)CN2CCC(c3nc(-c4cccc(F)c4)no3)CC2)cc1  inhibition (D(3) dopamine receptor (DRD3, Homo sapiens, UniProt P35462); enzyme activity, inhibitor; 10 µM): 16.7%
CC(=O)n1cc([C@H]2C=C(C(=O)N3CCN(Cc4ccc5c(c4)OCO5)CC3)O[C@@H](OCc3ccc(CO)cc3)C2)c2ccccc21  inhibition (Coelenterazine h 2-monooxygenase; luciferase activity, inhibitor, luminescence counter-screen; concentration not given, test 2): 82.3% and 92.7%
C[Si](C)(C)C[C@H](CN)CC(=O)O  inhibition (alpha2 adrenergic receptor, rat; binding, radioligand binding; 250 µM, added: [3H]rauwolscine): -5%
CC(C)Cc1ccc(-c2nn(-c3ccc(S(C)(=O)=O)cc3)cc2C=NN=c2[nH]c(-c3ccc(Br)cc3)cs2)cc1  inhibition (PTGS2; enzyme activity; 0.1 µM): 38.4%
C=CC(=O)Nc1cccc(Cn2ncc3cnc(Nc4cnn(CCOC)c4)nc32)c1  percent of control (PRKD2 human; binding, KINOMEscan; 100 nM; lower = stronger binding): 100%
CCOC(=O)C1(C2(O)C(=O)c3ccccc3C2=O)CCCC1=O (centres unmarked)  inhibition (USP5; enzyme activity, inhibitor; 17 µM): 15%
Cl.Oc1ccc(Nc2nc(NCC3CCCO3)c3ccccc3n2)cc1 (centres unmarked)  inhibition (Coelenterazine h 2-monooxygenase; luciferase activity, inhibitor, luminescence counter-screen; concentration not given, test 1): 96.5% and 89.8%
C=C1CC[C@H](OCCCNC(=O)CCOCCOCCOCCOCCOCCOCCOCCOCCOCCOCCOCCOCCOCCOCCOCCOCCOCCOCCOCCOCCOCCOCCOCCOCCOCCOCCOCCOCCOCCOCCOCCOCCOCCOCCOCCOCCNC(=O)CCN2C(=O)CC(SC[C@H](NC(=O)[C@H](Cc3ccccc3)NC(=O)[C@H](CC(N)=O)NC(=O)[C@H](Cc3c[nH]cn3)NC(=O)[C@@H](NC(=O)[C@H](CC(=O)O)NC(=O)[C@H](CCC(N)=O)NC(=O)[C@H](CC(C)C)NC(=O)[C@H](CCCCN)NC(=O)[C@H](CCCCN)NC(=O)[C@H](CCCNC(=N)N)NC(=O)[C@H](CC(C)C)NC(=O)[C@H](Cc3c[nH]c4ccccc34)NC(=O)[C@H](CCC(=O)O)NC(=O)[C@@H](NC(=O)[C@H](CCCNC(=N)N)NC(=O)[C@H](CCC(=O)O)NC(=O)[C@H](CCSC)NC(=O)[C@H](CO)NC(=O)[C@H](CC(N)=O)NC(=O)[C@H](CC(C)C)NC(=O)[C@H](Cc3c[nH]cn3)NC(=O)[C@H](CCCCN)NC(=O)CNC(=O)[C@H](CC(C)C)NC(=O)[C@H](CC(N)=O)NC(=O)[C@H](Cc3c[nH]cn3)NC(=O)[C@H](CCSC)NC(=O)[C@H](CC(C)C)NC(=O)[C@H](CCC(N)=O)NC(=O)[C@@H](NC(=O)[C@H](CCC(=O)O)NC(=O)[C@H](CO)NC(=O)[C@@H](NC(=O)[C@@H](N)CO)C(C)C)[C@@H](C)CC)C(C)C)C(C)C)C(=O)O)C2=O)C/C1=C/C=C1\CCC[C@]2(C)[C@@H]([C@H](C)CCCC(C)(C)O)CC[C@@H]12 (some centres unmarked)  half-life (male Sprague-Dawley rat, plasma; subcutaneous, 30 µg/kg, single dose): 15.4 h
CCOC(=O)c1c(C)oc2c1C(=O)C(=NO)c1ccccc1-2  inhibition (USP5; enzyme activity, inhibitor; 17 µM): 78%
CCCCCCCCN(CCC(=O)Nc1ccccc1)C(=O)c1ccc[nH]1  inhibition (Protein-S-isoprenylcysteine O-methyltransferase; enzyme activity; Sf9 membranes; 50 µM, added: [3H]S-adenosylmethionine, biotin-farnesyl-L-cysteine): 75%
N#CCNC(=O)c1ccc([C@H]2[C@@H](F)[C@@H](F)C[C@@H](F)[C@H]2F)cc1  hepatic clearance (hepatocyte stability; cryopreserved rat hepatocytes; 1 µM): 13 mL/min/kg
Cc1nn(-c2cccc(N)c2)c(=O)c2cnc(Nc3ccc(N4CCNCC4)cc3)nc12  IC50 (Serine/threonine-protein kinase Nek9 (NEK9, Homo sapiens, UniProt Q8TD19); enzyme activity, inhibitor): > 10000 nM
CC(C)C[C@H](NC(=O)[C@@H](CCCCNC(=O)[C@@H](Cc1ccccc1)NC(=O)CCCCCNC(=O)CN1CCN(CC(=O)O)CCN(CC(=O)O)CCN(CC(=O)O)CC1)NC(=O)[C@H](Cc1ccc(O)cc1)NC(=O)[C@H](CO)NC(=O)[C@H](Cc1c[nH]c2ccccc12)NC(=O)[C@H](Cc1c[nH]cn1)NC(=O)[C@@H]1CCC(=O)N1)C(=O)N[C@@H](CCCNC(=N)N)C(=O)N1CCC[C@H]1C(=O)NCC(N)=O [indium-111 labelled]  tissue uptake (female athymic nude mice, lung; intravenous, 0.037 MBq, 0.5 h): 2.22 ± 0.77 %ID/g
COc1cccc(-c2cc(F)c(NC(=O)Nc3sc(C)nc3C(=O)O)c(F)c2)c1  inhibition (Dihydroorotate dehydrogenase (quinone), mitochondrial (DHODH, Homo sapiens, UniProt Q02127); enzyme activity, DCIP colorimetric; 0.50 µM): 80.7% and 80.8% and 82.8%
O=C(NN=C1C=CC(=NO)C=C1)c1ccccc1O  inhibition (USP5; enzyme activity, inhibitor; 17 µM): 36%
CCn1nc(Cl)c2c1-c1cnc(N)c(c1)O[C@H](C)c1cc(F)ccc1-c1nn(C)cc1C2  IC50 (ALK tyrosine kinase receptor (ALK, Homo sapiens, UniProt Q9UM73, C1156Y); enzyme activity, inhibitor; added: 1 mM ATP): 1 nM
NN[C@@H](c1nnnn1CCc1ccccc1)C1CCCCC1  inhibition (Endothiapepsin (EAPA, Cryphonectria parasitica, UniProt P11838); enzyme activity, inhibitor; 200 µM): 36.9%
CS(=O)(=O)c1ccc(-n2cc(C=NN=c3[nH]c(-c4ccc([N+](=O)[O-])cc4)cs3)c(-c3ccc(Br)cc3)n2)cc1  inhibition (PTGS2; enzyme activity; 0.1 µM): 26.5%
O=C1c2sc(-c3ccc(N4CCC(CO)CC4)nc3F)nc2CCN1c1cccnc1  inhibition (Type-2 angiotensin II receptor (AGTR2, Homo sapiens, UniProt P50052); ligand displacement, radioligand; 1 µM): -1%
COc1ccc(C2CC(Nc3ccc(-c4ccc(NC5=NN(C(C)=O)C(c6ccc(OC)cc6)C5)cc4)cc3)=NN2C(C)=O)cc1 (centres unmarked)  inhibition (cyclooxygenase, rabbit; distal colon mucosa microsomes; 10 µM): 75%
CS(=O)(=O)c1ccc(-n2cc(C=NN=c3[nH]c(-c4ccc(Br)cc4)cs3)c(-c3ccc(Br)cc3)n2)cc1  inhibition (PTGS2; enzyme activity; 1 µM): 50.6%
C/C=C/C(=O)Nc1ccc2nc(NCCCCCN(C)C)nc(NCCCCCCN(C)C)c2c1  inhibition (Histone-lysine N-methyltransferase SUV39H2 (SUV39H2, Homo sapiens, UniProt Q9H5I1); enzyme activity, inhibitor, radiometric; 50 µM): 1%
O=C(O)CN1C(=O)Cc2ccccc2C1=O  inhibition (USP5; enzyme activity, inhibitor; 17 µM): 25%
CCCC[C@H](NC(=O)CCCCCCCNC(=O)CN1CCN(CC(=O)O)CCN(CC(=O)O)CC1)C(=O)N[C@H]1CC(=O)NCCCC[C@@H](C(N)=O)NC(=O)[C@H](Cc2c[nH]c3ccccc23)NC(=O)[C@H](CCCNC(=N)N)NC(=O)[C@@H](Cc2ccccc2)NC(=O)[C@H](Cc2c[nH]cn2)NC1=O [technetium-99m labelled]  tissue uptake (C57 mouse, lung; intravenous, 0.037 MBq, 0.5 h): 2.26 ± 1 %ID/g
Nc1ncc(-c2cc(-c3cnn(CC(F)(F)F)c3)ncc2F)nc1C(=O)NC1CNCC(F)C1 (centres unmarked)  remaining binding (TRKB; KINOMEscan competition binding; 1 µM; reference: DMSO control): 34%
C=CC(=O)N1[C@H](c2ccc3c(c2)OCO3)c2[nH]c3ccccc3c2C[C@@H]1C(=O)N1CCN(C)CC1  relative co-enrichment (human cyclin E1 N112C-3xFLAG:CDK2; co-IP with TMT proteomics, refers to: PCMT1; concentration not given, P22061; reference: wild type DMSO): 113%

For quick reference, copied from above:
COc1cccc(-c2cc(F)c(NC(=O)Nc3sc(C)nc3C(=O)O)c(F)c2)c1  inhibition (Dihydroorotate dehydrogenase (quinone), mitochondrial (DHODH, Homo sapiens, UniProt Q02127); enzyme activity, DCIP colorimetric; 0.50 µM): 80.7% and 80.8% and 82.8%
O=C(NN=C1C=CC(=NO)C=C1)c1ccccc1O  inhibition (USP5; enzyme activity, inhibitor; 17 µM): 36%
CCn1nc(Cl)c2c1-c1cnc(N)c(c1)O[C@H](C)c1cc(F)ccc1-c1nn(C)cc1C2  IC50 (ALK tyrosine kinase receptor (ALK, Homo sapiens, UniProt Q9UM73, C1156Y); enzyme activity, inhibitor; added: 1 mM ATP): 1 nM
